Results collected from several papers.
Compare with care: the assays were run in different laboratories. Values joined by “and” are separate records of one study, mostly repeats; a detail may differ. Numbers after ± are the reported error. No end group written: not given here.
B1: bicyclic; chain AATCHCRRSCYSTEYSYGTCTVMGINHRFCCL (also: bicyclic or more (positions not given here))
Sequence of UniProt Q9UNQ0 (whole entry, looked up): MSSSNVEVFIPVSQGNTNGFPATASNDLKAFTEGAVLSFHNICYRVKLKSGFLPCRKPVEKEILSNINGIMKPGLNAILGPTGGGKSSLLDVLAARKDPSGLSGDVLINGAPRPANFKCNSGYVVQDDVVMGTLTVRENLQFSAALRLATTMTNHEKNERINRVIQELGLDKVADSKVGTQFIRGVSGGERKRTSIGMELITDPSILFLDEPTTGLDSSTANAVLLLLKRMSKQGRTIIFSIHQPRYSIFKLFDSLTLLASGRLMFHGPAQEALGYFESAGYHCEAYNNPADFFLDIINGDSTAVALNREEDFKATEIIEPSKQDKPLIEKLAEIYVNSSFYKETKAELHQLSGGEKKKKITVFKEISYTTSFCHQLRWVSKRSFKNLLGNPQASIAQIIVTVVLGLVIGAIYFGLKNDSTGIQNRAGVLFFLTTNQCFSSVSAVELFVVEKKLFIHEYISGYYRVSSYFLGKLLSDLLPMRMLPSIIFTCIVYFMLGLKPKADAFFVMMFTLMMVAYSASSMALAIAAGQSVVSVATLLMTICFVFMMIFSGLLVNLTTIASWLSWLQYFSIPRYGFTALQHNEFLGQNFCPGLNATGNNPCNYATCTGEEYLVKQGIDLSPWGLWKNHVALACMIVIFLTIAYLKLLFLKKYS
Sequence of UniProt P11712 (whole entry, looked up): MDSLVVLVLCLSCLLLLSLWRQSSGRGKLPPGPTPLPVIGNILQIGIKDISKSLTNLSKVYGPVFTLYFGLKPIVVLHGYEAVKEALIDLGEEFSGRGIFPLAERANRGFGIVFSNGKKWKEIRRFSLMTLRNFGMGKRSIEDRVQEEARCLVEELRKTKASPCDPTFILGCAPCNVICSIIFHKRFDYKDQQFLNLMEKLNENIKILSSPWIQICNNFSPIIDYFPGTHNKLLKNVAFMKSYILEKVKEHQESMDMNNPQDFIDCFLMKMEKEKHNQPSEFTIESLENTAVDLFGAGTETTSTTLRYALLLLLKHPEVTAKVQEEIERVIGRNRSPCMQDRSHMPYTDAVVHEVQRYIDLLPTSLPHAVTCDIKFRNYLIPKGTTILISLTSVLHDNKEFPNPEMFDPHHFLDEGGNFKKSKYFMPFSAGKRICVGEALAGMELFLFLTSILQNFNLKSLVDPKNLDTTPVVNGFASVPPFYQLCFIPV

Molecule = Rilpivirine docusate; test system = octanol/water; setting = room temperature; measurement = apparent logP; result = 2.87 and ~2.9
Molecule = B1; assay = sedimentation velocity ultracentrifugation; test system = 10 mM Tris-maleate; setting = 100 µM, pH 6.4, 20 °C; measurement = sedimentation coefficient s20,w; result = 0.792 S
Molecule = glutathione; target or system = PC-12; assay = CellTiter-Glo; setting = 1 mM, 72 h; scale = reference: vehicle; measurement = viability; result = 100% and 96.8% and 104% and 101%
Molecule = FNA / CGLSGLGVA-NH2 ([18F]FNA-labelled, C-amide); assay = ex vivo gamma counting; test system = peptide, glioblastoma mouse model, pancreas; setting = 60 min post injection, with: 500-fold excess CooP blocking; measurement = tissue uptake; result = 0.26 %ID/g
Molecule = caspofungin; test system = adult ICU patients, mITT, serum; setting = dose not given, Baseline; measurement = albumin; result = 26 g/L
Molecule = regorafenib N-β-glucuronide; test system = reconstituted mouse plasma extract; setting = up to 24 h, 4 °C; scale = reference: initial concentration; measurement = autosampler stability; result = < 15%
Molecule = ILKEPVHGV; target or system = HLA-A2 complex with compound; assay = nanoDSF; test system = peptide; setting = pH 7.6, 2 µM complex; measurement = Tm; result = 64.2 ± 0.1 °C
Molecule = Polymyxin B; assay = untargeted LC-MS metabolomics, item: pyrophosphate; test system = Sprague-Dawley rat, right cerebral cortex; setting = intracerebroventricular, 0.75 mg/kg, 1 h; scale = reference: NaCl control; measurement = log2 fold change; result = -9.8
Molecule = Teicoplanin; test system = human serum QC samples; setting = room temperature; measurement = stability time; result = ≤ 2 days
Molecule = Astragaloside I; target or system = Cytochrome P450 2C9 (CYP2C9, Homo sapiens, UniProt P11712); assay = enzyme activity, inhibitor; test system = human liver microsomes 0.2 mg/mL; setting = with: tolbutamide 100 µM; measurement = IC50; result = > 200 µM
Molecule = NLVPMVATV; target or system = HLA-A2 complex with compound; assay = nanoDSF; test system = peptide; setting = pH 7.6, 2 µM complex; measurement = Tm; result = 64.9 ± 0.1 °C
Molecule = GSGAGKETSF; target or system = human MAGI1-3/6 PDZ construct (MBP fusion); assay = automated holdup; test system = peptide, crude extract; setting = concentration not given, uncorrected, unit not given; scale = reference: biotin control resin, higher = stronger binding; measurement = binding intensity; result = -0.143
Molecule = epoetin alfa; target or system = UT7/EPO; assay = microarray, item: EGR3 (probe 206115_at); setting = 5 U/mL, 90 min, with: SCF 10 nM; scale = reference: vehicle; measurement = mRNA level; result = 11.8 fold
Molecule = colistin; target or system = Acinetobacter baumannii; assay = broth microdilution; test system = clinical isolate RKI-No_523/16; measurement = MIC; result = ≤ 0.5 µg/mL
Molecule = LVHYTHCGSLGV; target or system = Epstein-Barr virus; test system = peptide, EBV-infected humanized B-NDG mice; setting = 20 mg/kg, day 28; measurement = body weight; result = 22.6 g and 22.3 g and 22.8 g
Molecule = GSGSSRYWANATRSGG; target or system = T2/TAP1+2 cells; assay = ER peptide stability; test system = peptide; setting = with: tunicamycin 10 µg/mL, 45 min pretreatment; measurement = half-life; result = ~20 min
Molecule = RRGCLCYCRRRFCVCVCR (disulfide (positions not given here)) (disulfide); target or system = human red blood cells; setting = 128 µg/mL, 3 h, 37 °C; scale = reference: Triton X-100 1%; measurement = haemolysis; result = 33.4%
Molecule = Polymyxin B; target or system = Acinetobacter baumannii; test system = 17978, neutropenic mice with pneumonia; setting = nebulised, dose not given; measurement = blood urea nitrogen; result = increased
Molecule = RRWCLCFCRRRFCVCVCR (disulfide (positions not given here)) (disulfide); target or system = human red blood cells; setting = 128 µg/mL, 3 h, 37 °C; scale = reference: Triton X-100 1%; measurement = haemolysis; result = 51.2%
Molecule = QDEKVKESYV; target or system = human SCRIB PDZ3-4 tandem (MBP fusion); assay = automated holdup; test system = peptide, crude extract; setting = concentration not given, uncorrected, unit not given; scale = reference: biotin control resin, higher = stronger binding; measurement = binding intensity; result = 0.72
Molecule = Lucifer yellow; target or system = ABCG2 (Homo sapiens, UniProt Q9UNQ0); assay = substrate; setting = with: AMP; measurement = uptake rate; result = 6.08 ± 0.734 pmol/min/mg

Repeated from above:
Molecule = glutathione; target or system = PC-12; assay = CellTiter-Glo; setting = 1 mM, 72 h; scale = reference: vehicle; measurement = viability; result = 100% and 96.8% and 104% and 101%
